# Results from different studies.
# Each numbered part is a random draw from the data of one study; scales do not carry over between parts.
# Chain of UniProt Q99583 (220-300, looked up): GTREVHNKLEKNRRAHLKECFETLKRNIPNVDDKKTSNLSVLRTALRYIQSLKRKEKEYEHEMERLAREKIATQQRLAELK
# Chain of UniProt P28147 (whole entry, looked up): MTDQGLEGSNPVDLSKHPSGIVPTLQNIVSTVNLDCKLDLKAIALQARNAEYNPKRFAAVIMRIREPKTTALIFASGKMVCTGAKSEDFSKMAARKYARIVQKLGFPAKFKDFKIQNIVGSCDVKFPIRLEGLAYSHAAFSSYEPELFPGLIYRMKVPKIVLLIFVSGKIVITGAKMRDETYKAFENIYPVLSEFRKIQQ

# Series 1 — technique: universal PBM; form: double-stranded DNA, one strand shown; sample: in vitro; tested at: 600 nM; direction: higher = stronger binding
# Target: Sal-like protein 4, full length isoform A (SALL4, Homo sapiens, UniProt Q9UJQ4, residues 1-1053)
# Chain of UniProt Q9UJQ4 (whole entry, looked up): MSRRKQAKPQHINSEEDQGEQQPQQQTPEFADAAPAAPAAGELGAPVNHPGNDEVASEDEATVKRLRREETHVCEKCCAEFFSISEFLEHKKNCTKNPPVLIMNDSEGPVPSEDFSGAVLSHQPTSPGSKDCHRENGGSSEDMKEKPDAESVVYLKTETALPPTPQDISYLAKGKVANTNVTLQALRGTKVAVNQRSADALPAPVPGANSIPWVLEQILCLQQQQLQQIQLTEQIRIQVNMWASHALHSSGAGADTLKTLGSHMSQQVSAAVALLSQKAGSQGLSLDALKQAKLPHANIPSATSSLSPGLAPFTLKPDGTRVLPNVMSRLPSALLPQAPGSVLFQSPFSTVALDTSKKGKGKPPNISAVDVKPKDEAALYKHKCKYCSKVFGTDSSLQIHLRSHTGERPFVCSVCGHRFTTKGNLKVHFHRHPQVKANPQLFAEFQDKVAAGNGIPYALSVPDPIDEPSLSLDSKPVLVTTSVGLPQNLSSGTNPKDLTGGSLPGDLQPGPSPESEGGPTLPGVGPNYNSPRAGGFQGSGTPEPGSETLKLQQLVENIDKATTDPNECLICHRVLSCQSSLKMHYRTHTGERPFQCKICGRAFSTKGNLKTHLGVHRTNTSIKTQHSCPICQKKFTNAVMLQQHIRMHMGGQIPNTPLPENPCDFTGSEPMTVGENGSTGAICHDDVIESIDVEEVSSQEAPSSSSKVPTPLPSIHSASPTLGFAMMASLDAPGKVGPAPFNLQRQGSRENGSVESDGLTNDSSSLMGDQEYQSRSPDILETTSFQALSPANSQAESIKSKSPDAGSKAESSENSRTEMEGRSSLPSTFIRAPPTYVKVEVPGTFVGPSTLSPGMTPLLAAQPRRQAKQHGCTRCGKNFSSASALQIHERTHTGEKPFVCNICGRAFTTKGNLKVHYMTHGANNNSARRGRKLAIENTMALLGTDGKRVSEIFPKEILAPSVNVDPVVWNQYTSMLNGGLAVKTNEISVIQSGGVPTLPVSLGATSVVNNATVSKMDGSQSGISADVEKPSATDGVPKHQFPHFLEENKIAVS
# Setting: 8-mer, flanks averaged, mean of replicates
Sequence,E-score
ATGTGCAC,-0.00851
GTAATGAC,0.0649
CCACTCCG,-0.181
CACATAAG,0.191
CGTAGACG,-0.202
CCGGTTGA,-0.259
CTTGAGCC,-0.142
ATGTGGTC,0.0488

# Series 2 — technique: protein-binding microarray; form: double-stranded DNA, one strand shown; sample: in vitro; tested at: 250 nM; setting: 60-bp whole probe; together with: salmon DNA 0.4 mg/ml; baseline: random background probes; direction: higher = stronger binding; shared flanks, not repeated: GCCTAGCAC … GTCTTGATTCGCTTGACGCTGCTG
# Target: Interferon regulatory factor 5, full length, phosphomimetic (IRF5, Homo sapiens, UniProt Q13568-2, residues 1-514, K96S/S451D/S453D/S456D/S462D)
Sequence,log fluorescence [z-score]
GACGAACTGGGTTTCGAGACGTGCTAG,2.07
GACGGTATCGAGTATCGGGACGTGCTA,3.29
TAAGGTTTCCTTATCCTTTAGTGCTAG,0.799
TCAAATTCTCTTTTCACACTGTGCTAG,1.14
TAAGATTTCAGTTTCGATTAGTGCTAG,10
AGAGTGCTCATGCTTCTTAGGGTGCTA,-0.39
TTAGGACTGGGGTTTCGGTTCGTGCTA,5.18
AATTACATTTCATAGAGTGTGTGCTAG,1.02

# Series 3 — read-out: enzyme activity; action: inhibitor; tested at: 20 µM
# Target: Replicase polyprotein 1ab, polymerase (rep, Severe acute respiratory syndrome coronavirus 2, UniProt P0DTD1)
Structure (SMILES),inhibition [%]
c1ccc(CN2CCC3(CCc4ccccc43)CC2)cc1,-0.8
CCC[C@@H]1C[C@@H](C(=O)N[C@@H]([C@H]2O[C@H](SC)[C@H](O)[C@@H](O)[C@H]2O)[C@@H](C)O)N(C)C1,18.7
O=Cc1cn(Cc2ccc(Cl)cc2)c2ccccc12,2.26
Cc1cccc(CN2CCN(C(c3ccccc3)c3ccc(Cl)cc3)CC2)c1 (centres unmarked),27.5
COc1ccc(-n2c(SCCCN3C(=O)c4cccc5cccc(c45)C3=O)nnc2-c2ccncc2)cc1,0.83
CC1=C(O)C(=O)[C@@H]2O[C@@H]2C1=O,2.01
COc1ccc2cc1Oc1cc3c(cc1OC)CC[N+](C)(C)[C@H]3Cc1ccc(cc1)Oc1c(OC)c(OC)cc3c1[C@@H](C2)[N+](C)(C)CC3,-3.39
Nc1nc(NC2CC2)cc(-c2cccc(Cl)c2Cl)n1,8.02
CCN(CC)C(=O)c1ccc(C2=CC3(CCNCC3)Oc3cccc(O)c32)cc1,-4.64
CC1(S(=O)(=O)O)CC(=O)c2ccccc2C1=O (centres unmarked),0.1
CC(C)(O)CC(=O)NCCn1ccc2ncnc(Nc3ccc(Oc4cccc(C(F)(F)F)c4)c(Cl)c3)c21,4.96
OCCCCO,-7.83
CCc1cccc(CC)c1NC(=O)c1nn(C)c2c1CCc1cnc(Nc3ccc(C(=O)NC4CCN(C)CC4)cc3OC(F)(F)F)nc1-2,5.78
CCN(C(=O)c1c(O)c2c(Cl)cccc2n(C)c1=O)c1ccccc1,0.27
O=C(O)c1cc(=O)c2c(Cl)cc(Cl)cc2[nH]1,6.55
O=C(O)CCC(=O)OC[C@@H](NC(=O)C(Cl)Cl)[C@H](O)c1ccc([N+](=O)[O-])cc1,3.48
Cc1ncc(Cl)cc1NCc1ccc(C(=O)N[C@@H](CC2CCCC2)C(=O)NC2CC2)s1,-0.8
CC(C)(C)c1ccc(S(=O)(=O)NCc2ccc(C(=O)Nc3cccnc3)cc2)cc1,0.25
CCOC(=O)c1ccc(O)cc1,-9.97
NC(=O)CN1Cc2ccccc2OC1=O,-4.86
CCOc1ccc(Cc2cc([C@]34OC[C@](CO)(O3)[C@@H](O)[C@H](O)[C@H]4O)ccc2Cl)cc1,2.76
CCCC(C)NC(=O)c1ccc(Cl)c(Cl)c1 (centres unmarked),-25.6
OC(Cn1cncn1)(Cn1cncn1)c1ccc(F)cc1F,-3.68
Cc1ccc(NC(=O)c2ccc(CN3CCN(C)CC3)cc2)cc1Nc1nc(-c2cccnc2)cs1,-0.35
O=C(/C=C/c1ccccc1)NCCO,-3.85

# Series 4 — read-out: enzyme activity; tested at: 20 µM; setting: with DTT
# Target: Replicase polyprotein 1ab, main protease (rep, Severe acute respiratory syndrome coronavirus 2, UniProt P0DTD1)
SMILES,inhibition [%]
CC(C)(C)OC(=O)NCCc1nnc(S(=O)(=O)Cc2ccc(Cl)cc2Cl)o1,94.9
Sc1nnc(-c2ccccc2Cl)o1,82.2
CS/C(N)=C(C#N)/C(C#N)=C(\N)SC,-9.7
Sc1nnc(Nc2ccccc2)s1,97.3

# Series 5 — cell line: HEK-293T/ACE2; tested at: concentration not given; time: 16 (unit not given); baseline: vehicle
Structure (SMILES),viability [%]
O=C(O[C@H]1CN2CCC1CC2)N1CCc2ccccc2[C@@H]1c1ccccc1,102
Cc1ccc(C(=O)c2cc(O)c(O)c([N+](=O)[O-])c2)cc1,80.3
O=C1CCCC(=O)C1C(=O)c1ccc(C(F)(F)F)cc1[N+](=O)[O-],101
C[C@]12CC[C@@H]3c4ccc(OC(=O)c5ccccc5)cc4CC[C@H]3[C@@H]1CC[C@@H]2O,102

# Mixed results — technique: protein-binding microarray; form: double-stranded DNA, one strand shown; sample: in vitro; tested at: not given; direction: higher = stronger binding
# Setting: k-mer, scored over probes, only values ≥0.25
# MYC bHLH-zipper, MAX partner unstated: Myc proto-oncogene protein, bHLH-zipper, MAX partner unstated (MYC, Homo sapiens, UniProt P01106, residues 368-449)
# Chain of UniProt P01106 (368-449, looked up): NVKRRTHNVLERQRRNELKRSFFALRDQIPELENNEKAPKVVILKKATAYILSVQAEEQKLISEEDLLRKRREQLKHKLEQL
Sequence,target,E-score
AGTTATA,"TATA-box-binding protein 1 (TBP1, Arabidopsis thaliana, UniProt P28147, residues 1-200, full length assumed)",0.411
ACGTGACG,"MYC bHLH-zipper, MAX partner unstated",0.306
ATGAGGGC,"MYC bHLH-zipper, MAX partner unstated",0.378
CGCACCCC,"Max-binding protein MNT, bHLH-zipper, MAX partner unstated (MNT, Homo sapiens, UniProt Q99583, residues 220-300)",0.336

# A few entries again (series 2):
Sequence,log fluorescence [z-score]
TCAAATTCTCTTTTCACACTGTGCTAG,1.14
GACGAACTGGGTTTCGAGACGTGCTAG,2.07
TAAGGTTTCCTTATCCTTTAGTGCTAG,0.799
AATTACATTTCATAGAGTGTGTGCTAG,1.02
GACGGTATCGAGTATCGGGACGTGCTA,3.29
TAAGATTTCAGTTTCGATTAGTGCTAG,10
TTAGGACTGGGGTTTCGGTTCGTGCTA,5.18
